Results gathered from unrelated publications.
Lines come from different studies, so protocols differ.

Nc1ncc(-c2cc(-c3cnn(CC(F)(F)F)c3)ncc2F)nc1C(=O)NC1CNCC(F)C1 (centres unmarked)  remaining binding (HIPK1; KINOMEscan; 1 µM; baseline: DMSO control): 50%
Cc1cn(CC(=O)N(CC(=O)N[C@H]2COC[C@@H]2N(CC(=O)NCCOCCOCC(N)=O)C(=O)Cn2cnc3c(N)ncnc32)[C@H]2COC[C@@H]2NC(=O)CN(C(=O)Cn2cnc3c(N)ncnc32)[C@H]2COC[C@@H]2NC(=O)CN(C(=O)Cn2cnc3c(=O)[nH]c(N)nc32)[C@H]2COC[C@@H]2NC(=O)CN(C(=O)Cn2cc(C)c(=O)[nH]c2=O)[C@H]2COC[C@@H]2NC(=O)CN(C(=O)Cn2cnc3c(=O)[nH]c(N)nc32)[C@H]2COC[C@@H]2NC(=O)CN(C(=O)Cn2cc(C)c(=O)[nH]c2=O)[C@H]2COC[C@@H]2NC(=O)CN(C(=O)Cn2cnc3c(N)ncnc32)[C@H]2COC[C@@H]2NC(=O)CN(C(=O)Cn2cnc3c(=O)[nH]c(N)nc32)[C@H]2COC[C@@H]2N)c(=O)[nH]c1=O  ΔTm (mismatched DNA TC; duplex formation, UV melting; baseline: complementary DNA): -26.2 °C
Cc1[nH]nc2c1N=C(c1ccccc1Cl)c1cnc(N3CCOCC3)cc1N2  inhibition (kainate receptor, rat; radioligand binding; 10 µM): 3%
C=CC(=O)Nc1cccc(Cn2ncc3cnc(Nc4cnn(CCOC)c4)nc32)c1  percent of control (SRPK2 human; binding, KINOMEscan; 100 nM; lower = stronger binding): 65%
CC(C)(C#N)c1ccc2c(c1)N(C(=O)c1ccc([C@@](C)(O)C(F)(F)F)cc1)Cc1cccnc1N2  IC50 (IDH1 R132H human; 2-HG production, RapidFire mass spectrometry; MOG-G-UVW overexpressing IDH1 R132H): 205 nM
C=CC(=O)N1[C@H](c2ccc3c(c2)OCO3)c2[nH]c3ccccc3c2C[C@@H]1C(=O)N1CCN(C)CC1  relative co-enrichment (human cyclin E1 N112C-3xFLAG:CDK2; co-IP with TMT proteomics, refers to: HNRNPA2B1; concentration not given, P22626; baseline: wild type DMSO): 165%
C[n+]1ccc(/C=N/NC(=O)c2cncc(C(=O)N/N=C/c3cc[n+](C)c4ccccc34)n2)c2ccccc21  ΔTm (hairpin duplex DNA; UV melting; 2 molar equivalents, DNA 3 µM): 0 °C
c1ccc(-c2n[nH]cc2-c2ccnc3ccccc23)nc1  log2 fold change (SKY1 (Candida albicans); kinase binding, MIB/MS competition; Candida albicans lysate; 1 µM; baseline: DMSO): 0.43
Fc1ccc(Nc2nc(NC3CCCCC3)c3cc(Br)ccc3n2)cc1F  pIC50 (β2AR/β1AR ECL2 chimera; β-arrestin2 recruitment, antagonist, BRET; together with: isoprenaline 1 µM): 6.4
C#CC(C)(C)C(=O)SCCOP1(=O)OCC2OC(n3cnc4c(N)ncnc43)CC2OP(=O)(OCCSC(=O)C(C)(C)C#C)OCC2OC(n3cnc4c(N)ncnc43)CC2O1 (centres unmarked)  EC50 (STING pathway (human); IRF reporter gene, agonist, Lucia luciferase reporter; THP1-Lucia; 8 h): 56 nM
Fc1ccc(Nc2nc(NC3CCCCC3)c3cc(C(F)(F)F)ccc3n2)cc1F  pIC50 (β2AR/β1AR TM7 chimera; β-arrestin2 recruitment, antagonist, BRET; together with: isoprenaline 1 µM): 6.7
CC(=O)c1cnc(N)nc1N1CC[C@H]1c1nn2ccc(Cl)c2c(=O)n1-c1ccccc1  binding (PI3Kδ; KiNativ; monkey white blood cell lysate; 1 µM): > 90%
Fc1ccc(Nc2nc(NC3CCCCC3)c3ccccc3n2)cc1F  pIC50 (β2AR/β1AR TM7 chimera; β-arrestin2 recruitment, antagonist, BRET; together with: isoprenaline 1 µM): 5.9
C[n+]1cc(NC(=O)c2ccc3ccc4ccc(C(=O)Nc5cc6ccccc6[n+](C)c5)nc4c3n2)cc2ccccc21  ΔTm (hairpin duplex DNA; UV melting; 1 molar equivalents, DNA 3 µM): 0.4 °C
